Experimental data of several laboratories.
± marks the error that the study gave.

O=C1CCN(Cc2ccccc2)CC1C(C[N+](=O)[O-])c1ccccc1 (stereo not drawn) — analgesic activity (mouse acetic acid writhing; 50 mg/kg, added: haloperidol 1 mg/kg pretreatment): 18%
Clc1ccc(NN=C(c2ccccc2)c2ccccn2)nc1 — tumour weight (nude mouse, H358 xenograft; intraperitoneal, 110 mg/kg; relative to: vehicle): decreased
CCCCCCCOC(=O)Cc1c(C)n(C(=O)c2ccc(Cl)cc2)c2ccc(OC)cc12 — writhing count (BALB/c mice, acetic acid writhing; intraperitoneal, 30 mg/kg, 20 min count): 6.33 ± 1.78
CC(C)C[C@H](NC(=O)[C@H](CCCNC(=N)N)NC(=O)CNC(=O)[C@@H](N)CC(C)C)C(=O)N[C@@H](CO)C(=O)N[C@@H](CCC(N)=O)C(=O)N[C@@H](CCC(=O)O)C(=O)N[C@@H](CC(C)C)C(=O)N[C@@H](Cc1c[nH]cn1)C(=O)N[C@@H](CCCNC(=N)N)C(=O)N[C@@H](CC(C)C)C(=O)N[C@@H](CCC(N)=O)C(=O)N[C@H](C(=O)N[C@@H](Cc1ccc(O)cc1)C(=O)N1CCC[C@H]1C(=O)N[C@@H](CCCNC(=N)N)C(=O)N[C@H](C(=O)N[C@@H](CC(N)=O)C(=O)N[C@H](C(=O)NCC(=O)N[C@@H](CO)C(=O)N[C@@H](CC(N)=O)C(=O)N[C@H](C(=O)N[C@@H](Cc1ccc(O)cc1)C(N)=O)[C@@H](C)O)[C@@H](C)O)[C@@H](C)O)[C@@H](C)O — synaptophysin level increase (TgCRND8 mice, brain; icv, dose not given, 5 months; relative to: vehicle): 30%
Cc1ncc([N+](=O)[O-])n1CCOCc1nnc(SCC(=O)c2ccc(F)cc2)o1 — DPPH scavenging (50 µg/mL, 45 min): 65.21 ± 0.26%
C=C(c1ccc(C(=O)O)c(F)c1)c1cc2c(cc1C)C(C)(C)C=CC2(C)C — log2 fold change (RNA sequencing, refers to: Angptl4 mRNA; rat, brain; dose not given, 24 h, single dose; relative to: vehicle): -1.43
Cc1ccc(C(=O)Nc2ccc(CP(=O)(O)O)cc2CP(=O)(O)O)cc1NC(=O)c1cccc(NC(=O)Nc2cccc(C(=O)Nc3cc(C(=O)Nc4ccc(CP(=O)(O)O)cc4CP(=O)(O)O)ccc3C)c2)c1 — APTT (human plasma; 141 µM): 39.7 ± 3.9 s
C[C@H](NC(=O)COC(=O)[C@H](C)NC(=O)CO)C(=O)O — depolymerization rate constant (water; pH 2, 37 °C): 0.002 h⁻¹
CCCC[C@H](NC(=O)[C@@H](NC(=O)[C@H](CC(=O)O)NC(=O)[C@H](CCC(N)=O)NC(=O)[C@H](CC(C)C)NC(=O)[C@H](CC(C)C)NC(=O)[C@H](CCCN)NC(=O)[C@H](CCCNC(=N)N)NC(=O)[C@H](C)NC(=O)[C@H](CO)NC(=O)[C@H](CC(C)C)NC(=O)[C@H](CCC(N)=O)NC(=O)[C@H](CC)NC(=O)[C@H](CC(C)C)NC(=O)[C@@H](NC(=O)[C@H](CCCN)NC(=O)[C@H](CCCNC(=N)N)NC(=O)[C@H](Cc1ccc(O)cc1)NC(=O)[C@H](CO)NC(=O)[C@H](CCC(N)=O)NC(=O)[C@@H](NC(=O)[C@H](Cc1c(F)c(F)c(F)c(F)c1F)NC(=O)[C@@H](NC(=O)[C@H](C)NC(=O)[C@H](CC(=O)O)NC(=O)[C@@H](C)NC(=O)[C@H](Cc1ccc(O)cc1)NC)[C@@H](C)CC)[C@@H](C)O)C(C)C)[C@@H](C)CC)C(=O)N[C@@H](CC(=O)O)C(=O)N[C@@H](CCCNC(=N)N)C(=O)NC — serum GH level (GH release, ELISA; male Sprague-Dawley rat, anaesthetised, serum; subcutaneous, 3 µg/kg, 0 min): 29.5 ± 3.2 ng/mL
CC(C)c1cnc(-c2cc(Cl)ccc2F)cc1Nc1ccncc1C(=O)NC(CO)CO — maximum inhibition (refers to: pSMAD2; 4T1 tumour-bearing mouse, tumour; 30 mg/kg twice daily; relative to: vehicle): 79%
Cc1nc(C)c(C=[N+]([O-])C(C)(C)C)nc1C — protein level increase (Western blot, refers to: PGC-1α; mouse, MPTP model, substantia nigra nuclei; 10 mg/kg): 33.6%
CC12CC(O)C3CC1(OC1OC(CO)C(O)C(O)C1O)C3(COC(=O)c1ccccc1)C(=O)O2 (stereo not drawn) — out-of-circle rate (pseudo-germ-free mice, reserpine model; 14 mg/kg, 7 days): 20%
C[C@H](NC(=O)CNC(=O)[C@H](CCC(=O)O)NC(=O)[C@H](CCC(=O)O)NC(=O)[C@H](CC(=O)O)NC(=O)[C@@H]1CCCN1C(=O)[C@H](Cc1ccccc1)NC(=O)[C@H](CS)NC(=O)[C@H](Cc1ccc(O)cc1)NC(=O)CCCNC(=O)CNC(=O)CNC(=O)[C@@H](C)NC(=O)CN)C(=O)N[C@@H](CS)C(=O)N[C@@H](Cc1ccc(O)cc1)C(N)=O [technetium-99m labelled] — tumour to non-tumour ratio (SPECT; BALB/c nude mouse, SKBR3 tumour; intravenous, 37 MBq, 90 min): 4.56
COc1ccc2c(c1)c(CC(=O)OCC(=O)c1ccccc1)c(C)n2C(=O)c1ccc(Cl)cc1 — analgesia (acetic acid writhing test; BALB/c mouse; intraperitoneal, 10 mg/kg; relative to: negative control): 59.5%
Cc1cccc(Cn2ncc3c4cc(F)c(CN(C)C)cc4n(C)c3c2=O)n1 — CD11b+/Iba1+ mononuclear phagocytes (rd10 mouse, retina; intraperitoneal, 50 mg/kg at P14, P21): decreased
CCCC[C@H](NC(=O)[C@@H](NC(=O)[C@H](CC(=O)O)NC(=O)[C@H](CCC(N)=O)NC(=O)[C@H](CC(C)C)NC(=O)[C@H](CC(C)C)NC(=O)[C@H](CCCN)NC(=O)[C@H](CCCNC(=N)N)NC(=O)[C@H](C)NC(=O)[C@H](CO)NC(=O)[C@H](CC(C)C)NC(=O)[C@H](CCC(N)=O)NC(=O)[C@H](CC)NC(=O)[C@H](CC(C)C)NC(=O)[C@@H](NC(=O)[C@H](CCCN)NC(=O)[C@H](CCCNC(=N)N)NC(=O)[C@H](Cc1ccc(O)cc1)NC(=O)[C@H](CO)NC(=O)[C@H](CCC(N)=O)NC(=O)[C@@H](NC(=O)[C@H](Cc1ccccc1)NC(=O)[C@@H](NC(=O)[C@H](C)NC(=O)[C@H](CC(=O)O)NC(=O)[C@@H](C)NC(=O)[C@H](Cc1ccc(O)cc1)NC)[C@@H](C)CC)[C@@H](C)O)C(C)C)[C@@H](C)CC)C(=O)N[C@@H](CC(=O)O)C(=O)NCCCCNC(=N)N — serum GH level (GH release, ELISA; male Sprague-Dawley rat, anaesthetised, serum; subcutaneous, 3 µg/kg, 30 min): 143 ± 18.4 ng/mL
O=C(CN1CCC(O)CC1)Nc1nccs1 — DPPH radical scavenging (0.1 mM, 1 h): 24.6%
COc1ccc(-c2oc3ccccc3c(=O)c2OCc2ccccc2)cc1 — serum alanine aminotransferase (diabetic rat; 7.5 mg/kg, p-nitrophenyl β-glucoside induced): 33.4 ± 2.5 IU
CC(=O)N[C@@H](CC(N)=O)C(=O)NCC(=O)N[C@@H](C)C(=O)N[C@@H](C)C(N)=O — rate constant succinimide to α-Asp (1H NMR; sodium phosphate buffer 50 mM; pH 6.3, 55 °C): 0.077 h⁻¹
CCCC[C@H](NC(=O)[C@@H](NC(=O)[C@H](CC(=O)O)NC(=O)[C@H](CCC(N)=O)NC(=O)[C@H](CC(C)C)NC(=O)[C@H](CC(C)C)NC(=O)[C@H](CCCN)NC(=O)[C@H](CCCNC(=N)N)NC(=O)[C@H](C)NC(=O)[C@H](CO)NC(=O)[C@H](CC(C)C)NC(=O)[C@H](CCC(N)=O)NC(=O)[C@H](CC)NC(=O)[C@H](CC(C)C)NC(=O)[C@@H](NC(=O)[C@H](CCCN)NC(=O)[C@H](CCCNC(=N)N)NC(=O)[C@H](Cc1ccc(O)cc1)NC(=O)[C@H](CO)NC(=O)[C@H](CC(N)=O)NC(=O)[C@@H](NC(=O)[C@H](Cc1c(F)c(F)c(F)c(F)c1F)NC(=O)[C@@H](NC(=O)[C@H](C)NC(=O)[C@H](CC(=O)O)NC(=O)[C@@H](C)NC(=O)CCc1ccc(O)cc1)[C@@H](C)CC)[C@@H](C)O)C(C)C)[C@@H](C)CC)C(=O)N[C@@H](CO)C(=O)N[C@@H](CCCNC(=N)N)C(=O)NCCCC(N)=O — serum GH level (GH release, ELISA; male Sprague-Dawley rat, anaesthetised, serum; subcutaneous, 3 µg/kg, 15 min): 267 ± 21 ng/mL
O=c1c(OCc2ccccc2)c(-c2ccc([N+](=O)[O-])cc2)oc2ccccc12 — serum LDL cholesterol (diabetic rat; 5 mg/kg, 28 days, p-nitrophenyl β-glucoside induced): 140 ± 4.14 mg/dL

For quick reference, copied from above:
Clc1ccc(NN=C(c2ccccc2)c2ccccn2)nc1 — tumour weight (nude mouse, H358 xenograft; intraperitoneal, 110 mg/kg; relative to: vehicle): decreased
CCCCCCCOC(=O)Cc1c(C)n(C(=O)c2ccc(Cl)cc2)c2ccc(OC)cc12 — writhing count (BALB/c mice, acetic acid writhing; intraperitoneal, 30 mg/kg, 20 min count): 6.33 ± 1.78
CC(C)C[C@H](NC(=O)[C@H](CCCNC(=N)N)NC(=O)CNC(=O)[C@@H](N)CC(C)C)C(=O)N[C@@H](CO)C(=O)N[C@@H](CCC(N)=O)C(=O)N[C@@H](CCC(=O)O)C(=O)N[C@@H](CC(C)C)C(=O)N[C@@H](Cc1c[nH]cn1)C(=O)N[C@@H](CCCNC(=N)N)C(=O)N[C@@H](CC(C)C)C(=O)N[C@@H](CCC(N)=O)C(=O)N[C@H](C(=O)N[C@@H](Cc1ccc(O)cc1)C(=O)N1CCC[C@H]1C(=O)N[C@@H](CCCNC(=N)N)C(=O)N[C@H](C(=O)N[C@@H](CC(N)=O)C(=O)N[C@H](C(=O)NCC(=O)N[C@@H](CO)C(=O)N[C@@H](CC(N)=O)C(=O)N[C@H](C(=O)N[C@@H](Cc1ccc(O)cc1)C(N)=O)[C@@H](C)O)[C@@H](C)O)[C@@H](C)O)[C@@H](C)O — synaptophysin level increase (TgCRND8 mice, brain; icv, dose not given, 5 months; relative to: vehicle): 30%
Cc1ncc([N+](=O)[O-])n1CCOCc1nnc(SCC(=O)c2ccc(F)cc2)o1 — DPPH scavenging (50 µg/mL, 45 min): 65.21 ± 0.26%
